Assay results pooled from the literature.
Every numbered part comes from another study and shows a few of its results, in no order. Values joined by “and” are separate records of one study, mostly repeats; a detail may differ.
Sequence of UniProt O75716 (whole entry, looked up): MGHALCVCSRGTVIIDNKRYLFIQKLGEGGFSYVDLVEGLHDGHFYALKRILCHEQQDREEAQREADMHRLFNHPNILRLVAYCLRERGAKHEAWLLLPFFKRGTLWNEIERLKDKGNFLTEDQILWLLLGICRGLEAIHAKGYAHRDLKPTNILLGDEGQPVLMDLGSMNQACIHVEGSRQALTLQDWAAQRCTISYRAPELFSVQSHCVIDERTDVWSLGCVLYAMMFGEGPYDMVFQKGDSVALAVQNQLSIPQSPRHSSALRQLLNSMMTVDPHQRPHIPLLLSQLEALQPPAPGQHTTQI
Sequence of UniProt P30530 (whole entry, looked up): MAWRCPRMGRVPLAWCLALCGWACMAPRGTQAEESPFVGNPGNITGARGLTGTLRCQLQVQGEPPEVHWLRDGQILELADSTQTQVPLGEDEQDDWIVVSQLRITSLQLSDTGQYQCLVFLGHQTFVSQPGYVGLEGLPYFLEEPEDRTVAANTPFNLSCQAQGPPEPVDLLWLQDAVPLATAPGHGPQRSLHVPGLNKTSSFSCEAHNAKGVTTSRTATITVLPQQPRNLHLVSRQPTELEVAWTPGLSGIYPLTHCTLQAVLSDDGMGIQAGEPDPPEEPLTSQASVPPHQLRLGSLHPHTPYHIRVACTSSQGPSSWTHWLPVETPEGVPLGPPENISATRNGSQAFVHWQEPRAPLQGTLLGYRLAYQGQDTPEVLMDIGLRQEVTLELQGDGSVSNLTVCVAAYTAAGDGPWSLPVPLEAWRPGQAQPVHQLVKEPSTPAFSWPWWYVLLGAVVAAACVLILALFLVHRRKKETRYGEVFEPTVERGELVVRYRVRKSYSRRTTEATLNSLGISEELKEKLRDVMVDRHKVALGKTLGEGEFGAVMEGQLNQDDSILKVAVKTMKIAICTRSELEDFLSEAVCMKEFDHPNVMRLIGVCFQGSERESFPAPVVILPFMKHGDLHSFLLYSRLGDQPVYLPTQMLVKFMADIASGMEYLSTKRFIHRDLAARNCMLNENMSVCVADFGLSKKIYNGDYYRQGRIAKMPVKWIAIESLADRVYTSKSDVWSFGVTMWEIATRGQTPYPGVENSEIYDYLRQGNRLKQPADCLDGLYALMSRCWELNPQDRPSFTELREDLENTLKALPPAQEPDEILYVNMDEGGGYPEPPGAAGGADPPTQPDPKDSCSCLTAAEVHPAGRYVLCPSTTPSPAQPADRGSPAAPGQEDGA
Sequence of UniProt P22612 (whole entry, looked up): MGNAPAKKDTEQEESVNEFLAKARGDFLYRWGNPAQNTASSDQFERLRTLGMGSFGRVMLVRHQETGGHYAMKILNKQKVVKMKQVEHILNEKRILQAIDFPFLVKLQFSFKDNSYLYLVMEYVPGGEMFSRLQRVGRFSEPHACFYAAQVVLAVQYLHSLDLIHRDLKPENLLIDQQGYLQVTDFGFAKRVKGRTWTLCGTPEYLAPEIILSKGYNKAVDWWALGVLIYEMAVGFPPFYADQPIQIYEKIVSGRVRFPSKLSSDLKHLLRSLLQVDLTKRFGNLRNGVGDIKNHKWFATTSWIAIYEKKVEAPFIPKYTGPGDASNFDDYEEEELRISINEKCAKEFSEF
Sequence of UniProt P54764 (whole entry, looked up): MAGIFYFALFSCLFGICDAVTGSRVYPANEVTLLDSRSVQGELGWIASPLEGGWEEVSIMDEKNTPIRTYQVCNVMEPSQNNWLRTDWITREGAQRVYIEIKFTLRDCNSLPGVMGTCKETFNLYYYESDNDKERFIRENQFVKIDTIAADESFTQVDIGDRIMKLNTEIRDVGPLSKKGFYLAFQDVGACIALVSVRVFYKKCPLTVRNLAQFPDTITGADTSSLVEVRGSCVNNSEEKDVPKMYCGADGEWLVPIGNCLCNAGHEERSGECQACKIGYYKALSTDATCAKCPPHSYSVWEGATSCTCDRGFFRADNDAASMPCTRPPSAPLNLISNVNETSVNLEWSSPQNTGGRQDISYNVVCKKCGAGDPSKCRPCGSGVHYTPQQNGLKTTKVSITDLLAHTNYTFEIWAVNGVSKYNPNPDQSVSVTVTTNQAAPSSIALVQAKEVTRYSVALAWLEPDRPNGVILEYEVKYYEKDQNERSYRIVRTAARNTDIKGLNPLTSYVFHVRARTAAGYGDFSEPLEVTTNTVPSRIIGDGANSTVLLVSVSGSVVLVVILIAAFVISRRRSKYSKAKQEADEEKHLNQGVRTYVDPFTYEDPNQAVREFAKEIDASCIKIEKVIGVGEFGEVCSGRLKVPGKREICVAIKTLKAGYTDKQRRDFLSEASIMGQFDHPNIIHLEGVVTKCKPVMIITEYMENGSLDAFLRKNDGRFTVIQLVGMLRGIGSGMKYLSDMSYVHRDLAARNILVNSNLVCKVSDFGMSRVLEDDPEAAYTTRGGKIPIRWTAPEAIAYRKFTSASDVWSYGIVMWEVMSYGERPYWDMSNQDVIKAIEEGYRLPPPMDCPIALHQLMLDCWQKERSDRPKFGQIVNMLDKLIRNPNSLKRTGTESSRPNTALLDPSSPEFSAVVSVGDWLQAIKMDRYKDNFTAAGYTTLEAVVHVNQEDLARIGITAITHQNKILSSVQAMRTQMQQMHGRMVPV

Sample 1 — SMILES: COc1cccc(-c2cc(=O)c3ccccc3o2)c1N; read-out: enzyme activity; mode: inhibitor; tested at: 0.5 µM; baseline: control
target | remaining activity
DYRK3 (Homo sapiens, UniProt O43781) | 90.3%
CAMK2B (Homo sapiens, UniProt Q13554) | 103%
MAPKAPK3 (Homo sapiens, UniProt Q16644) | 88.1%
PDPK1 (Homo sapiens, UniProt O15530) | 98.3%
Cyclin-dependent kinase 6, with cyclin D3 (CDK6, Homo sapiens, UniProt Q00534) | 99.3%
PRKACG (Homo sapiens, UniProt P22612) | 96%
Cyclin-dependent kinase 4, with cyclin D3 (CDK4, Homo sapiens, UniProt P11802) | 101%
AXL (Homo sapiens, UniProt P30530) | 127%
RPS6KA6 (Homo sapiens, UniProt Q9UK32) | 95.2%
PHKG1 (Homo sapiens, UniProt Q16816) | 92.9%
HIPK2 (Homo sapiens, UniProt Q9H2X6) | 116%
WNK3 (Homo sapiens, UniProt Q9BYP7) | 96.3%
SRMS (Homo sapiens, UniProt Q9H3Y6) | 104%
STK17A (Homo sapiens, UniProt Q9UEE5) | 96.9%
Cyclin-dependent kinase 1, with cyclin B (CDK1, Homo sapiens, UniProt P06493) | 99.8%
TSSK2 (Homo sapiens, UniProt Q96PF2) | 79.7%
HIPK4 (Homo sapiens, UniProt Q8NE63) | 98.6%
EPHA4 (Homo sapiens, UniProt P54764) | 98%
ABL1 (Homo sapiens, UniProt P00519) | 93.9%
EPHB4 (Homo sapiens, UniProt P54760) | 101%
STK16 (Homo sapiens, UniProt O75716) | 95.4%
BLK (Homo sapiens, UniProt P51451) | 107%
EPHB1 (Homo sapiens, UniProt P54762) | 88%
RPS6KA5 (Homo sapiens, UniProt O75582) | 96.4%
MAP4K4 (Homo sapiens, UniProt O95819) | 97.2%

Sample 2 — read-out: enzyme activity; mode: inhibitor; tested at: 77 µM; baseline: untreated
Target: DNA polymerase theta, ATPase domain (POLQ, Homo sapiens, UniProt O75417)
Sequence of UniProt O75417 (whole entry, unmodified, looked up): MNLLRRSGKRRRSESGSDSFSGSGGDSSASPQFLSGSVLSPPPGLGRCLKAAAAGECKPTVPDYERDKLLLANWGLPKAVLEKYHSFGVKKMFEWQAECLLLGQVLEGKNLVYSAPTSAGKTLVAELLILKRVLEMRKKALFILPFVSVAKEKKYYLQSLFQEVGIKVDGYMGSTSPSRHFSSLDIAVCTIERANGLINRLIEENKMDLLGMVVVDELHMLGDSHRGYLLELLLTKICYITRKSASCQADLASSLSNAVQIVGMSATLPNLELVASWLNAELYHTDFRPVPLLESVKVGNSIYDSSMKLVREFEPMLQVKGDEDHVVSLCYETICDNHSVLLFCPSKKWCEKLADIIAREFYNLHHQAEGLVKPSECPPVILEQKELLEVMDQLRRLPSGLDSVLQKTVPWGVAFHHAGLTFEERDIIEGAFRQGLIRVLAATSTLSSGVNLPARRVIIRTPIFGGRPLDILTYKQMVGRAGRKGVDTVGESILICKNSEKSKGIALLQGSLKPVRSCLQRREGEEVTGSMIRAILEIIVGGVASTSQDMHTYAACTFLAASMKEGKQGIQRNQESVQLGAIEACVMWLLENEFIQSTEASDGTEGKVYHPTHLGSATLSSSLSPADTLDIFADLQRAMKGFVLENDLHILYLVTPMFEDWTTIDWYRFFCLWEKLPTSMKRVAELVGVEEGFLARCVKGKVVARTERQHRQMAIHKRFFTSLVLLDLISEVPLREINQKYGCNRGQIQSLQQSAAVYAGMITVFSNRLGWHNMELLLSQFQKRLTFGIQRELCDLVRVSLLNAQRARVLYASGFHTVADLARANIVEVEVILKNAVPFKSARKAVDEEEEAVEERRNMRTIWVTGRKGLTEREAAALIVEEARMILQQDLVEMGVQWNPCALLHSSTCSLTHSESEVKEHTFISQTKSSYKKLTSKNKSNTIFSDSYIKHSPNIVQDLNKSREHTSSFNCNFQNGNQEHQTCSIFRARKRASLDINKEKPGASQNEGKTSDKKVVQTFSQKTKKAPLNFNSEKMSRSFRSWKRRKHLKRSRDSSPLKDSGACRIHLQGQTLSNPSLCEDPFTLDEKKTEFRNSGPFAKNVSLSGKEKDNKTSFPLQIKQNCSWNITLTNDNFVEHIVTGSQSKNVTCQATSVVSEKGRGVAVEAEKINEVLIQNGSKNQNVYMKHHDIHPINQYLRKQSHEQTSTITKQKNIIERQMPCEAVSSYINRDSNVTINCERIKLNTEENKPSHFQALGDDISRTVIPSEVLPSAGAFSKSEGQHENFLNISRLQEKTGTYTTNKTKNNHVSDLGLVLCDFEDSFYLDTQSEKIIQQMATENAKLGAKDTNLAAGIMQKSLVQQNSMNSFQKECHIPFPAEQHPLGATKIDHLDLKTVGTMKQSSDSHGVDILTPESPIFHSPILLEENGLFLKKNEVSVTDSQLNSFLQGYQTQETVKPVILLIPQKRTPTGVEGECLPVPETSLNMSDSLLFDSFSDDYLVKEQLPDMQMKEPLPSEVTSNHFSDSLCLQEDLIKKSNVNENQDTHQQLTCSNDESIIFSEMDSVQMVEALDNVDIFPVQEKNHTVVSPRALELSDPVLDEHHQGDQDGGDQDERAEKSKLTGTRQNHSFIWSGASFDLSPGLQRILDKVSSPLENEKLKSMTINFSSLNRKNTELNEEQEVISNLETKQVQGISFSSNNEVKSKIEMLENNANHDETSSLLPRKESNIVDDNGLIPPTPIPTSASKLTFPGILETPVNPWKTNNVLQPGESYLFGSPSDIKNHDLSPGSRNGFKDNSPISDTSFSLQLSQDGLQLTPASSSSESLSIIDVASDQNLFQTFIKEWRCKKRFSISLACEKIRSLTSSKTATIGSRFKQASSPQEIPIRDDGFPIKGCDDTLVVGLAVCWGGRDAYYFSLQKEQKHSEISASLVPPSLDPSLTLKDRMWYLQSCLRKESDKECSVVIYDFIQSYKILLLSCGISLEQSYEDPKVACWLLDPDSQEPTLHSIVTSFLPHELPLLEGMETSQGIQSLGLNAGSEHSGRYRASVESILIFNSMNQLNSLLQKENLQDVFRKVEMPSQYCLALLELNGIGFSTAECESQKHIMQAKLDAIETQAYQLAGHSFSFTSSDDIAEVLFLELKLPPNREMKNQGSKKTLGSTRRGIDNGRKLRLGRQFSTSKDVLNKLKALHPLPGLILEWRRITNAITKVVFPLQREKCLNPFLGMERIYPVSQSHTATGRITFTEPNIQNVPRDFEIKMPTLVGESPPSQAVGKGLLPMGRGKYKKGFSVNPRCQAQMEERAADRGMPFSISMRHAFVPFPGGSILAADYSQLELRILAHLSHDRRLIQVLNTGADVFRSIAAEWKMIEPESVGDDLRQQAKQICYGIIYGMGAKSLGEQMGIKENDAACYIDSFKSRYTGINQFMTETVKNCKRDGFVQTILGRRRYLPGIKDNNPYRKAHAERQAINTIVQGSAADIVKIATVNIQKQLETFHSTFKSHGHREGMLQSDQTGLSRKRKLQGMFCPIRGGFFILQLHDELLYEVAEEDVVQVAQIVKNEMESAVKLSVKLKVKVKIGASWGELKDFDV
SMILES | remaining activity
C=C1[C@H](CO)[C@@H](O)C[C@@H]1n1cnc2c(=O)[nH]c(N)nc21 | 92.6%
CCCn1c(=O)c2[nH]c(C3CCCC3)nc2n(CCC)c1=O | 95.9%
O[C@@H]1CO[C@H]2[C@@H]1OC[C@@H]2O | 99.5%
CCSC(=N)N | 110%
CCc1c2c(nc3ccc(OC(=O)N4CCC(N5CCCCC5)CC4)cc13)-c1cc3c(c(=O)n1C2)COC(=O)[C@]3(O)CC | 86.6% and 77.9%
CCOC(=O)C1=C(C)NC(C)=C(C(=O)OCC)C1c1ccccc1/C=C/C(=O)OC(C)(C)C | 88.8%
CC1CN(S(=O)(=O)c2cccc3cnccc23)CCN1 (stereo not drawn) | 96.7%
O=C1NCN(c2ccccc2)C12CCN(CCCC(c1ccc(F)cc1)c1ccc(F)cc1)CC2 | 103%
CCS(=O)(=O)Nc1ccc2c(c1)/C(=C(/Nc1ccc(CN3CCCCC3)cc1)c1ccccc1)C(=O)N2 | 100%
CC(C)(Sc1cc(C(C)(C)C)c(O)c(C(C)(C)C)c1)Sc1cc(C(C)(C)C)c(O)c(C(C)(C)C)c1 | 99.1%
CC(=O)/C(C)=N/O | 100%
Brc1c(NC2=NCCN2)ccc2nccnc12 | 98.4%

Sample 3 — Structure (SMILES): CSc1cccnc1N1CCN(Cc2nc3ccccc3[nH]2)CC1; tested at: 1 µM
target | assay | remaining binding [%]
SRPK1 (Homo sapiens, UniProt Q96SB4) | cell-free assay, competition with immobilised ligand | 100
Ribosomal protein S6 kinase alpha-2, N-terminal kinase domain (RPS6KA2, Homo sapiens, UniProt Q15349) | cell-free assay, competition with immobilised ligand | 100
SIK2 (Homo sapiens, UniProt Q9H0K1) | cell-free assay, competition with immobilised ligand | 100
CDK17 (Homo sapiens, UniProt Q00537) | cell-free assay, competition with immobilised ligand | 100
AXL (Homo sapiens, UniProt P30530) | binding, competition with immobilised ligand | 100
BMP2K (Homo sapiens, UniProt Q9NSY1) | cell-free assay, competition with immobilised ligand | 100
CDK13 (Homo sapiens, UniProt Q14004) | cell-free assay, competition with immobilised ligand | 85
MAP3K15 (Homo sapiens, UniProt Q6ZN16) | cell-free assay, competition with immobilised ligand | 67
MET (Homo sapiens, UniProt P08581, Y1235D) | cell-free assay, competition with immobilised ligand | 89
STK16 (Homo sapiens, UniProt O75716) | cell-free assay, competition with immobilised ligand | 100
CHUK (Homo sapiens, UniProt O15111) | cell-free assay, competition with immobilised ligand | 98
EGFR (Homo sapiens, UniProt P00533, del746-750) | cell-free assay, competition with immobilised ligand | 100
MAP2K4 (Homo sapiens, UniProt P45985) | cell-free assay, competition with immobilised ligand | 89
CSNK1A1L (Homo sapiens, UniProt Q8N752) | cell-free assay, competition with immobilised ligand | 100
Receptor-type tyrosine-protein kinase FLT3, autoinhibited (FLT3, Homo sapiens, UniProt P36888) | cell-free assay, competition with immobilised ligand | 91
SBK1 (Homo sapiens, UniProt Q52WX2) | cell-free assay, competition with immobilised ligand | 99
EPHA7 (Homo sapiens, UniProt Q15375) | cell-free assay, competition with immobilised ligand | 93
CDK19 (Homo sapiens, UniProt Q9BWU1) | competition binding | 96
NEK3 (Homo sapiens, UniProt P51956) | cell-free assay, competition with immobilised ligand | 88
STK10 (Homo sapiens, UniProt O94804) | cell-free assay, competition with immobilised ligand | 87
Aurora kinase C (AURKC, Homo sapiens, UniProt Q9UQB9) | cell-free assay, competition with immobilised ligand | 100
PIK3CA (Homo sapiens, UniProt P42336, E542K) | cell-free assay, competition with immobilised ligand | 82
STK11 (Homo sapiens, UniProt Q15831) | cell-free assay, competition with immobilised ligand | 100
SRC (Homo sapiens, UniProt P12931) | cell-free assay, competition with immobilised ligand | 100
NEK5 (Homo sapiens, UniProt Q6P3R8) | cell-free assay, competition with immobilised ligand | 100

Sample 4
Compound: CC(C)n1cnc(-c2ccc(F)cc2)c1-c1ncc(C(=O)Nc2ccc(N3CCN(C)CC3)cc2)[nH]1
assay | system | conditions | patients with adverse event [%]
Phase 2a trial, refers to: eosinophilia myalgia syndrome | human, idiopathic pulmonary fibrosis | 60 mg once daily, grade 5 | 0
Phase 2a trial, refers to: hyperlipidaemia | human, idiopathic pulmonary fibrosis | all compound arms total, grade 5 | 0
Phase 2a trial, refers to: hypercholesterolaemia | human, idiopathic pulmonary fibrosis | 60 mg once daily, grade 4 | 0
refers to: periorbital oedema, grade 4 | idiopathic pulmonary fibrosis patients | dose not given, all compound arms pooled | 0
Phase 2a trial, refers to: haemorrhoids | human, idiopathic pulmonary fibrosis | 60 mg once daily, grade 3 | 0
Phase 2a trial, refers to: hyperlipidaemia | human, idiopathic pulmonary fibrosis | 60 mg once daily, grade 4 | 0
Phase 2a trial, refers to: hyperlipidaemia | human, idiopathic pulmonary fibrosis | 30 mg once daily, grade 2 | 0
Phase 2a trial, refers to: hypocalcaemia | human, idiopathic pulmonary fibrosis | all compound arms total, grade 2 | 0
Phase 2a trial, refers to: blood lactate dehydrogenase increased | human, idiopathic pulmonary fibrosis | all compound arms total, grade 5 | 0
refers to: prostatic calcification, maximum grade 3 | idiopathic pulmonary fibrosis patients | oral, 30 mg once daily | 0
Phase 2a trial, refers to: blood pressure increased | human, idiopathic pulmonary fibrosis | all compound arms total, grade 4 | 0
refers to: periorbital oedema, grade 5 | idiopathic pulmonary fibrosis patients | dose not given, all compound arms pooled | 0
Phase 2a trial, refers to: hypoalbuminaemia | human, idiopathic pulmonary fibrosis | 30 mg once daily, grade 4 | 0
